Results collected from several papers.
Protocols differ between the studies behind these lines. “And” joins repeats or separate records; there may be more than shown.

| SMILES | target | assay | system | conditions | how to read | quantity | result |
| --- | --- | --- | --- | --- | --- | --- | --- |
| Fc1ccc(Nc2nc(NC3CCCCC3)c3cc(Br)ccc3n2)cc1F | β2AR/β1AR ECL2 chimera | β-arrestin2 recruitment, antagonist, BRET |  | added: isoprenaline 1 µM |  | pIC50 | 6.4 |
| CC(C)(C#N)c1ccc2c(c1)N(C(=O)c1ccc([C@@](C)(O)C(F)(F)F)cc1)Cc1cccnc1N2 | IDH1 R132H human | 2-HG production, RapidFire mass spectrometry | MOG-G-UVW overexpressing IDH1 R132H |  |  | IC50 | 205 nM |
| C=CC(=O)Nc1cccc(Cn2ncc3cnc(Nc4cnn(CCOC)c4)nc32)c1 | RIPK4 human | binding, KINOMEscan |  | 100 nM | lower = stronger binding | percent of control | 87% |
| Nc1ncc(-c2cc(-c3cnn(CC(F)(F)F)c3)ncc2F)nc1C(=O)NC1CNCC(F)C1 (centres unmarked) | ULK1 | KINOMEscan |  | 1 µM | baseline: DMSO control | remaining binding | 95% |
| Fc1ccc(Nc2nc(NC3CCCCC3)c3cc(C(F)(F)F)ccc3n2)cc1F | β2AR/β1AR ECL2 chimera | β-arrestin2 recruitment, antagonist, BRET |  |  | baseline: isoprenaline maximal response | maximal inhibition | -2% |
| CC(=O)c1cnc(N)nc1N1CC[C@H]1c1nn2ccc(Cl)c2c(=O)n1-c1ccccc1 | PI3Kδ | KiNativ | dog white blood cell lysate | 1 µM |  | binding | > 90% |
| Fc1ccc(Nc2nc(NC3CCCCC3)c3ccccc3n2)cc1F | β2AR/β1AR TM7 chimera | β-arrestin2 recruitment, antagonist, BRET |  |  | baseline: isoprenaline maximal response | maximal inhibition | 1.8% |
| C[n+]1ccc(/C=N/NC(=O)c2cccc(C(=O)N/N=C/c3cc[n+](C)c4ccccc34)n2)c2ccccc21 | hairpin duplex DNA | UV melting |  | 2 molar equivalents, DNA 3 µM |  | ΔTm | 2 °C |
| C=CC(=O)N1[C@H](c2ccc3c(c2)OCO3)c2[nH]c3ccccc3c2C[C@@H]1C(=O)N1CCN(C)CC1 | human cyclin E1 N112C-3xFLAG:CDK2 | co-IP with TMT proteomics, item: PRPF19 |  | concentration not given, Q9UMS4 | baseline: wild type DMSO | relative co-enrichment | 122% |
| c1ccc(-c2n[nH]cc2-c2ccnc3ccccc23)nc1 | SKY1 (Candida albicans) | kinase binding, MIB/MS competition | Candida albicans lysate | 1 µM | baseline: DMSO | log2 fold change | 0.43 |
| C#CC(C)(C)C(=O)SCCOP1(=O)OCC2OC(n3cnc4c(N)ncnc43)CC2OP(=O)(OCCSC(=O)C(C)(C)C#C)OCC2OC(n3cnc4c(N)ncnc43)CC2O1 (centres unmarked) | STING pathway (human) | IRF reporter gene, agonist, Lucia luciferase reporter | THP1-Lucia | 8 h |  | EC50 | 56 nM |
| C=CC(=O)N1[C@H](c2ccc3c(c2)OCO3)c2[nH]c3ccccc3c2C[C@@H]1C(=O)NC1CC1 | FAM213A Cys85 human | cysteine IA-DTB labelling, covalent inhibitor, MS-ABPP | 22Rv1 | 20 µM, 3 h |  | inhibition | 20% and 38% |
| Cc1cn(CC(=O)N(CC(=O)N[C@H]2CCC[C@@H]2N(CC(=O)N[C@H]2COC[C@@H]2N(CC(=O)N[C@H]2COC[C@@H]2N(CC(=O)N[C@H]2COC[C@@H]2N(CC(=O)NCCOCCOCC(N)=O)C(=O)Cn2cnc3c(N)ncnc32)C(=O)Cn2cc(C)c(=O)[nH]c2=O)C(=O)Cn2cnc3c(N)ncnc32)C(=O)Cn2cnc3c(=O)[nH]c(N)nc32)[C@H]2CCC[C@@H]2NC(=O)CN(C(=O)Cn2cnc3c(=O)[nH]c(N)nc32)[C@H]2CCC[C@@H]2NC(=O)CN(C(=O)Cn2cc(C)c(=O)[nH]c2=O)[C@H]2COC[C@@H]2NC(=O)CN(C(=O)Cn2cnc3c(N)ncnc32)[C@H]2COC[C@@H]2NC(=O)CN(C(=O)Cn2cnc3c(=O)[nH]c(N)nc32)[C@H]2COC[C@@H]2N)c(=O)[nH]c1=O | mismatched DNA TC | duplex formation, UV melting |  |  | baseline: complementary DNA | ΔTm | -27.4 °C |
| C[n+]1ccc(/C=N/NC(=O)c2cncc(C(=O)N/N=C/c3cc[n+](C)c4ccccc34)n2)c2ccccc21 | hairpin duplex DNA | UV melting |  | 1 molar equivalents, DNA 3 µM |  | ΔTm | 0 °C |
